Results gathered from unrelated publications.
Each numbered part is a random draw from the data of one study; scales do not carry over between parts. Positions count from the first letter of the parent shown.

Set 1 — method: DNA-protein interaction ELISA; molecule type: double-stranded DNA, one strand shown; sample: in vitro, bacterial lysate; concentration: not given; setting: whole dsDNA probe, crude lysate protein; relative to: highest signal in screen; direction: higher = stronger binding
Target: Probable WRKY transcription factor 33, C-terminal DNA-binding domain (WRKY33, Arabidopsis thaliana, UniProt Q8S8P5, residues 346-449)
Target sequence (chain): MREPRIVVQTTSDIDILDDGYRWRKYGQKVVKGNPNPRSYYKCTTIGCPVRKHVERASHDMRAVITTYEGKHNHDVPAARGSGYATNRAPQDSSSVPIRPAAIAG
With `AAAAAAGTTTCCTACTTGTGTCTGTGAAAA` the relative absorbance was 30.3 % of maximum.
For `AAAAAAGTTCGGGGCTTGGTTTGGAAAAAA`, the relative absorbance was 29.8 % of maximum.
`AAAAAAGTACATGCGTAGATAATGTTAAAA` has a relative absorbance of 49.9 % of maximum.
With `AAAAAATAAGTAACCGAACGAAACTCAAAA` the relative absorbance was 55.5 % of maximum.
The relative absorbance of `AAAAAATTCCCAGCGTATCCGACCCGAAAA` is reported as 28.3 % of maximum.
The relative absorbance of `AAAAAATCCTTTTCTCTTTCTGTTTCAAAA` is reported as 27.2 % of maximum.
The relative absorbance of `AAAAAAGATTGACTCGTCTTACTCGAAAAA` is reported as 99.7 % of maximum.
With `AAAAAACCTCTTGTCTCTGCTCTCCCAAAA` the relative absorbance was 31.6 % of maximum.

Set 2 — method: aptamer microarray, sandwich; molecule type: DNA with 2'F-ANA; sample: in vitro; concentration: 200 nM; together with: Cy3 exosite-II aptamer, 400 nM; direction: higher = stronger binding; sequence: GGTTGGTGTGGTTGG
Target: Prothrombin, mature alpha-thrombin (F2, Homo sapiens, UniProt P00734)
Setting: whole 15-mer aptamer, many near background
Under “mean fluorescence intensity”, `2'F-ANA at 2 3 4 6 7 9 11 12 13 15` is recorded as 424 a.u.
Under “mean fluorescence intensity”, `2'F-ANA at 5 6 7 11 13` is recorded as 640 a.u.
`2'F-ANA at 2 3 4 8 9 13 15`: “mean fluorescence intensity” 408 a.u.
`2'F-ANA at 1 5 8 9`: “mean fluorescence intensity” 59.2 a.u.
For `2'F-ANA at 1 5 7 11 13 15`, “mean fluorescence intensity” read 48.3 a.u.
`2'F-ANA at 2 3 8 10 11 12 13` — result for “mean fluorescence intensity”: 426 a.u.
`2'F-ANA at 2 3 4 7 9`: “mean fluorescence intensity” 756 a.u.
For `2'F-ANA at 3 4 6 7 8 10 11 14 15`, “mean fluorescence intensity” read 292 a.u.

Set 3 — method: protein binding microarray; molecule type: double-stranded DNA, one strand shown; sample: in vitro; concentration: not given; relative to: not given; direction: higher = stronger binding
Target: Histone acetyltransferase KAT6A, winged helix 1, GST fusion (KAT6A, Homo sapiens, UniProt Q92794, residues 1-85)
Setting: 8-mer, flanks averaged, mean of 2 arrays, mostly near background
Residues (chain): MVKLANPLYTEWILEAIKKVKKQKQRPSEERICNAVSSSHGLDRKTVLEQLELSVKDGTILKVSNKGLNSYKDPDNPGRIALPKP
With `CACGAGAG` the E-score was -0.0623.
With `ACGCTTCT` the E-score was 0.0804.
For `AGACTACC`, the E-score was -0.0261.
With `CCTTTGGC` the E-score was -0.194.
With `CAGCTGAC` the E-score was -0.0114.
For `CCCTCTCA`, the E-score was -0.318.
The E-score of `ATGACTAG` is reported as 0.00217.
`CGAATTAC` gave an E-score of 0.00865.

Mixed results — starting sequence: viral docking peptide; YKVKRRLVFGADD
`YKVKRRLVFGRDD [A11R]` — result for “normalised enrichment score”: 1.28 (CCND1, cyclin fold, Cln2 fusion (human); yeast growth competition, sequencing; yeast; strong parent motif; relative to: not given, higher = stronger binding).
